Measured values gathered from unrelated publications.
Compare with care: the assays were run in different laboratories. ± gives the spread as reported.
Cell line: PC-3

Nc1cc2cccnc2c2ncccc12.[Cl-].[Cl-].[Ru+2].c1cnc2c(c1)ccc1cccnc12.c1cnc2c(c1)ccc1cccnc12  IC50 (cell growth or viability, MTT; dark): > 500 µM
Cc1cc(C)cc(COc2cc3c(cc2OCc2cc(C)cc(C)c2)[C@@H]2C[C@](O)(Cc4cn(Cc5ccc(F)cc5)nn4)C[C@H](C)N2CC3)c1 (relative stereo)  IC50 (cell growth or viability, MTT): 0.102 µM
COc1ccccc1/C=C1\C(=O)N(C)c2ccc(N(C)c3nc(C)nc4ccccc34)cc21  IC50 (cell growth or viability, MTT): 5.38 µM
CC(=O)[O][Pt]([NH2])([NH2])([Cl])([Cl])[O]C(=O)CCC(C)C1CCC2C3CCC4CC(O)CCC4(C)C3CCC12C (centres unmarked)  IC50 (cell growth or viability, MTT): 2.7 µM
O=[P@]1(c2ccccc2)CC[C@@H](O)CC1  IC50 (cell growth or viability, MTT; 72 h): > 100 µM
Cc1cc(C)cc(COc2cc3c(cc2OCc2cc(C)cc(C)c2)C2CC(O)CC(C)N2CC3)c1 (centres unmarked)  IC50 (cell growth or viability, MTT): 0.57 µM
CCc1c(C)c2ccc(OC(C)C)c(C)c2oc1=O  IC50 (cell viability, MTT): 36.5 µg/mL
OCC1OC(Nc2cc3cccnc3c3ncccc23)C(O)C(O)C1O (centres unmarked)  IC50 (cell growth or viability, MTT; 48 h, dark): 1.7 µM
[BH3-][P@+]1(c2ccccc2)CC[C@H](O)CC1  IC50 (cell growth or viability, MTT; 72 h): > 100 µM
O=C(O)C(Cc1c[nH]cn1)N1C(=O)c2ccc3c4ccc5c6c(ccc(c7ccc(c2c37)C1=O)c64)C(=O)N(CCN1CCCCC1)C5=O (centres unmarked)  IC50 (cell growth or viability, SRB; 72 h): 96.9 µM
CNC[C@H](O)c1cccc(O)c1  IC50 (cell growth or viability, CCK-8): > 200 µM
[BH3-][P+]1(C2CCCCC2)CCCCC1  IC50 (cell growth or viability, MTT; 72 h): > 100 µM
Cc1nc(Nc2ccc3c(c2)/C(=C/c2ccccc2)C(=O)N3)c2ccccc2n1  IC50 (cell growth or viability, MTT): 23.4 µM
CNC[C@H](O)c1cccc(OCCOCCOCCOCC#Cc2cccc(Cn3c(-c4ccccc4)c(-c4ccccc4)c4c(=N)n([C@H]5CC[C@H](O)CC5)cnc43)c2)c1  IC50 (cell growth or viability, CCK-8): 3.27 µM
[BH3-][P+]1(c2ccccc2)CCCCC1  IC50 (cell viability, MTT; 72 h): 36.7 ± 4.08 µM
CC(CCC(=O)[O][Pt]([NH2])([NH2])([OH])([Cl])[Cl])C1CCC2C3CCC4CC(O)CCC4(C)C3CCC12C (centres unmarked)  IC50 (cell growth or viability, MTT): 7.5 µM
CN(C)c1ccc(/C=C/c2cc(/C=C3\Sc4ccccc4N3CCCN3CCCC3)c3ccccc3[n+]2C)cc1  IC50 (cell growth or viability, MTT; 36 h): 4.89 µM
COc1ccccc1/C=C1\C(=O)Nc2ccc(Nc3nc(C)nc4ccccc34)cc21  IC50 (cell growth or viability, MTT): 1.52 µM
CNS(=O)(=O)Nc1nccc(Cc2c(C)c3ccc(Oc4ncccc4F)cc3oc2=O)c1F  IC50 (cell viability; 7 days): > 1 µM
Cc1nc(N(C)c2ccc3c(c2)/C(=C/c2ccccc2)C(=O)N3C)c2ccccc2n1  IC50 (cell growth or viability, MTT): 23.1 µM
C#CC[C@]1(O)C[C@H](C)N2CCc3cc(OCc4cc(C)cc(C)c4)c(OCc4cc(C)cc(C)c4)cc3[C@@H]2C1  IC50 (cell growth or viability, MTT): 0.507 µM
Cc1nc(N(C)c2ccc3c(c2)/C(=C/c2ccccc2C)C(=O)N3C)c2ccccc2n1  IC50 (cell growth or viability, MTT): 4.59 µM
Cc1ccc([N+](=O)[O-])cc1S(=O)(=O)N(C)/N=C/c1cnc2ccc(Br)cn12  IC50 (cell growth or viability): 0.02 µM

Excerpt of the above:
CC(=O)[O][Pt]([NH2])([NH2])([Cl])([Cl])[O]C(=O)CCC(C)C1CCC2C3CCC4CC(O)CCC4(C)C3CCC12C (centres unmarked)  IC50 (cell growth or viability, MTT): 2.7 µM
O=[P@]1(c2ccccc2)CC[C@@H](O)CC1  IC50 (cell growth or viability, MTT; 72 h): > 100 µM
Cc1cc(C)cc(COc2cc3c(cc2OCc2cc(C)cc(C)c2)C2CC(O)CC(C)N2CC3)c1 (centres unmarked)  IC50 (cell growth or viability, MTT): 0.57 µM
